Measured values gathered from unrelated publications.
Lines come from different studies, so protocols differ. ± gives the spread as reported.
Organism: Plasmodium falciparum

CCC(C)N1CCC(c2ccc(Nc3ccnc4cc(Cl)ccc34)cc2)CC1 (centres unmarked) — IC50 (parasite growth, SYBR Green; D6; 72 h, blood stage): 0.0026 µM
O=C(O)C1Cc2c([nH]c3ccccc23)C(c2ccc(F)c(F)c2F)N1 (centres unmarked) — IC50 (parasite growth; Dd2): ~20 µM
COc1ccc(C(=O)/C=C/c2ccc(OCc3cn(-c4ccnc5cc(Cl)ccc45)nn3)c(OC)c2)c(OC)c1 — IC50 (parasite growth; W2; drug-resistant strain, blood stage): 0.09 µM
C/C(=C/CC/C(C)=C\C(=O)C[C@]1(C)CCc2cc(O)cc(C)c2O1)CO — IC50 (parasite growth, SYBR Green; DD2; 72 h, drug-resistant strain, blood stage): > 112 µM
FC(F)(F)c1ccc(N2CCN(c3ccc(Nc4ccnc5cc(Cl)ccc45)cc3)CC2)cc1 — IC50 (parasite growth, SYBR Green; D6; 72 h, blood stage): 0.054 µM
CSCCC(NC(=O)COc1ccc(Cl)cc1Cl)C(=O)O (centres unmarked) — IC50 (parasite growth, parasite lactate dehydrogenase; NF54 (chloroquine-sensitive)): > 285 µM
CCOC(=O)OC(C)Oc1c(-c2ccc(Oc3ccc(OC(F)(F)F)cc3)cc2)c(C)nc2cc(OC)c(Cl)cc12 (centres unmarked) — IC50 (parasite growth, SYBR Green I; D6, drug-sensitive; 72 h): 0.33 µM
Clc1ccc2c(Nc3ccc(N4CCOCC4)cc3)ccnc2c1 — IC50 (parasite growth, SYBR Green; D6; 72 h, blood stage): ≥ 0.25 µM
CCCCCCCc1c(C)[nH]c2cc(OC)ccc2c1=O — IC50 (oxygen consumption; K1): 0.088 ± 0.024 µM
C[C@H]1[C@@H](O)O[C@@H]2O[C@@]3(C)CC[C@H]4[C@H](C)CC[C@@H]1[C@@]24OO3 — IC50 (parasite growth, flow cytometry; 3D7; 48 h, blood stage): 0.00569 µM
CC(C)(C)c1ccc(O)c(CNC2CCCCC2)c1 — IC50 (female gamete formation, refers to: Pfs25; stage V gametocytes; 24 h, compound washed out before gametes): > 20 µM
CC(C)(C)NC(=O)[C@@H]1CN(Cc2cnc3occc3c2)CCN1C[C@@H](O)C[C@@H](Cc1ccccc1)C(=O)N[C@H]1c2ccccc2C[C@H]1O — IC50 (schizont development; INDO; 12 h, early to late schizont): < 5 µM
CC(C)c1nc(CN(C)C(=O)N[C@H](C(=O)N[C@@H](Cc2ccccc2)C[C@H](O)[C@H](Cc2ccccc2)NC(=O)OCc2cncs2)C(C)C)cs1 — IC50 (parasite growth, flow cytometry; 3D7, human O+ erythrocytes; 48 h): 3 µM
Clc1ccc2c(Nc3ccc(N4CCN(Cc5ccccc5)CC4)cc3)ccnc2c1 — IC50 (parasite growth, SYBR Green; D6; 72 h, blood stage): 0.02 µM
COc1ccc(C(=O)/C=C/c2cc(CN3CCN(c4ccnc5cc(Cl)ccc45)CC3)c(O)c(OC)c2)c(OC)c1 — IC50 (parasite growth; DD2; drug-resistant strain, blood stage): 0.3 to 0.6 µM
CCOC(=O)CSC(=S)Nc1ccc(Cl)cc1 — IC50 (parasite growth, [3H]hypoxanthine incorporation; NF54 (chloroquine-sensitive)): > 34.5 µM
C[C@H]1[C@@H](OC/C=C\CO[C@H]2O[C@@H]3O[C@@]4(C)CC[C@H]5[C@H](C)CC[C@@H]([C@H]2C)[C@@]35OO4)O[C@@H]2O[C@@]3(C)CC[C@H]4[C@H](C)CC[C@@H]1[C@@]24OO3 — IC50 (parasite growth; W2; 72 h, drug-resistant strain, blood stage): < 0.01 µM
COc1cc(/C=C/C(C)=O)ccc1OCc1cn(-c2ccnc3cc(Cl)ccc23)nn1 — IC50 (parasite growth; D10; blood stage): 0.8 µM
CCOC(=O)C(=CNc1cc(Cl)ccc1Cl)C(=O)OCC — IC50 (parasite growth, [3H]hypoxanthine incorporation; NF54 (chloroquine-sensitive)): 11.3 µM
C[C@H]1[C@H](OC(=O)CCC(=O)O)O[C@@H]2O[C@@]3(C)CC[C@H]4[C@H](C)CC[C@@H]1[C@@]24OO3 — IC50 (parasite growth, [3H]hypoxanthine incorporation; NF54; 72 h): 0.004 µM
CC(C)(C)OC(=O)N1CCN(c2ccc(Nc3ccnc4cc(Cl)ccc34)cc2)CC1 — IC50 (parasite growth, SYBR Green; DD2; 72 h, drug-resistant strain, blood stage): 0.217 µM
C[C@H]1[C@@H](OCC(=O)CO)O[C@@H]2O[C@@]3(C)CC[C@H]4[C@H](C)CC[C@@H]1[C@@]24OO3 — IC50 (parasite growth; W2; 72 h, drug-resistant strain, blood stage): < 0.01 µM
COc1ccc(C(=O)/C=C/c2ccc(O)c(CN3CCN(c4ccnc5cc(Cl)ccc45)CC3)c2)c(OC)c1 — IC50 (parasite growth; D10; blood stage): 0.3 to 0.6 µM
O=C(O)C1Cc2c([nH]c3ccccc23)C(Cc2ccc(Cl)cc2Cl)N1 (centres unmarked) — IC50 (parasite growth; Dd2): > 10 µM
CCN(CC)CCCC(C)Nc1ccnc2cc(Cl)ccc12 (centres unmarked) — IC50 (schizont maturation; field isolates; 20% human serum): 0.34 µM
CCOC(=O)C1=C(C)NC2=C(C(=O)CC(c3ccc(OC)c(OC)c3)C2)C1c1ccccc1Cl (centres unmarked) — IC50 (male gamete formation; stage V gametocytes; 24 h, compound washed out): 0.264 µM
O=C(O)C1Cc2c([nH]c3ccccc23)C(c2c(F)cc(Cl)cc2F)N1 (centres unmarked) — IC50 (parasite growth; Dd2): 1.8 ± 0.15 µM
O=c1c2c([nH]c3cc(F)cc(F)c13)-c1ccccc1C2 — IC50 (parasite growth; NF54; blood stage): 0.0022 µM
CCCOC(=O)C1=C(C)NC2=C(C(=O)CC(c3ccc(OC)c(OC)c3)C2)C1c1ccccc1F (centres unmarked) — IC50 (male gamete formation; stage V gametocytes; 24 h, compound carried over): 0.0888 µM
C=C(C)C1CCC2(CO)CCC3(C)C(CCC4C5(C)CCC(O)C(C)(COC(=O)/C=C\c6ccc(O)cc6)C5CCC43C)C12 (centres unmarked) — IC50 (parasite growth; Dd2 drug-resistant; 72 h): 0.63 ± 0.02 µM
C[C@H]1[C@@H](OC/C=C\CO)O[C@@H]2O[C@@]3(C)CC[C@H]4[C@H](C)CC[C@@H]1[C@@]24OO3 — IC50 (parasite growth; D6; 72 h, blood stage): < 0.01 µM
COc1cc(CO)c(-c2ccc3c(c2O)[C@@H](C)N[C@H](C)C3)c2cccc(O)c12 — IC50 (parasite growth, SYBR Green; NF54; 96 h, blood stage): 0.008 µM
CC(C)CN1CCC(c2ccc(Nc3ccnc4cc(Cl)ccc34)cc2)CC1 — IC50 (parasite growth, SYBR Green; D6; 72 h, blood stage): 0.007 µM
C[C@H]1[C@@H](Oc2cccc(N[C@@H]3[C@H](C)O[C@@H]4O[C@@]5(C)CC[C@H]6[C@H](C)CC[C@@H]3[C@@]46OO5)c2)O[C@@H]2O[C@@]3(C)CC[C@H]4[C@H](C)CC[C@@H]1[C@@]24OO3 — IC50 (parasite growth; W2; 72 h, drug-resistant strain, blood stage): < 0.01 µM
CCN1CCN(c2ccc(Nc3ccnc4cc(Cl)c(Cl)cc34)cc2)CC1 — IC50 (parasite growth, SYBR Green; DD2; 72 h, drug-resistant strain, blood stage): 0.026 µM
COc1ccc(C2CC(=O)C3=C(C2)NC(C)=C(C(=O)OC(C)C)C3c2ccccc2C)cc1OC (centres unmarked) — IC50 (female gamete formation, refers to: Pfs25; stage V gametocytes; 24 h, compound washed out before gametes): > 20 µM
O=C(CCCCCONC(=O)c1ccc(F)cc1)NO — IC50 (parasite growth; HN12, NF54; 72 h, gametocyte): 2 to 5.3 µM
C=C(C)[C@@H]1CC[C@]2(COC(C)=O)CC[C@]3(C)[C@H](CC[C@@H]4[C@@]5(C)CC[C@H](OC(C)=O)C(C)(C)[C@@H]5CC[C@]43C)[C@@H]12 — IC50 (parasite growth; Dd2 drug-resistant; 72 h): > 10 µM
O=CC[C@@H](O)[C@H](O)[C@H](O)CO — IC50 (parasite growth; 3D7; 48 h, blood stage): 4190 µM
COC1=CC(c2ccc[nH]2)=N/C1=C\c1[nH]c(Cc2ccc(Cl)cc2)cc1Cc1ccc(Cl)cc1 — IC50 (parasite growth; D6; 72 h): < 0.0083 µM
Oc1cccc(C(Nc2nccs2)c2ccc3cccnc3c2O)c1 (centres unmarked) — IC50 (schizont development; INDO; 12 h, early to late schizont): < 5 µM
O=C(O)C1Cc2c([nH]c3ccccc23)C(c2ccc(O)cc2Cl)N1 (centres unmarked) — IC50 (parasite growth; Dd2): > 5 µM
Clc1ccc2c(Nc3ccc(C4CN(Cc5ccccc5)CCO4)cc3)ccnc2c1 (centres unmarked) — IC50 (parasite growth, SYBR Green; DD2; 72 h, drug-resistant strain, blood stage): ≥ 0.25 µM
C=CCN(CC(O)CO)c1ccccc1 (centres unmarked) — IC50 (parasite growth, parasite lactate dehydrogenase; NF54 (chloroquine-sensitive)): > 482 µM

Excerpt of the above:
CCOC(=O)OC(C)Oc1c(-c2ccc(Oc3ccc(OC(F)(F)F)cc3)cc2)c(C)nc2cc(OC)c(Cl)cc12 (centres unmarked) — IC50 (parasite growth, SYBR Green I; D6, drug-sensitive; 72 h): 0.33 µM
Clc1ccc2c(Nc3ccc(N4CCOCC4)cc3)ccnc2c1 — IC50 (parasite growth, SYBR Green; D6; 72 h, blood stage): ≥ 0.25 µM
CCCCCCCc1c(C)[nH]c2cc(OC)ccc2c1=O — IC50 (oxygen consumption; K1): 0.088 ± 0.024 µM
C[C@H]1[C@@H](O)O[C@@H]2O[C@@]3(C)CC[C@H]4[C@H](C)CC[C@@H]1[C@@]24OO3 — IC50 (parasite growth, flow cytometry; 3D7; 48 h, blood stage): 0.00569 µM
